Experimental data gathered from unrelated publications.
Protocols differ between the studies behind these lines. Numbers after ± are the reported error.
UniProt P05177, sequence (whole entry, looked up): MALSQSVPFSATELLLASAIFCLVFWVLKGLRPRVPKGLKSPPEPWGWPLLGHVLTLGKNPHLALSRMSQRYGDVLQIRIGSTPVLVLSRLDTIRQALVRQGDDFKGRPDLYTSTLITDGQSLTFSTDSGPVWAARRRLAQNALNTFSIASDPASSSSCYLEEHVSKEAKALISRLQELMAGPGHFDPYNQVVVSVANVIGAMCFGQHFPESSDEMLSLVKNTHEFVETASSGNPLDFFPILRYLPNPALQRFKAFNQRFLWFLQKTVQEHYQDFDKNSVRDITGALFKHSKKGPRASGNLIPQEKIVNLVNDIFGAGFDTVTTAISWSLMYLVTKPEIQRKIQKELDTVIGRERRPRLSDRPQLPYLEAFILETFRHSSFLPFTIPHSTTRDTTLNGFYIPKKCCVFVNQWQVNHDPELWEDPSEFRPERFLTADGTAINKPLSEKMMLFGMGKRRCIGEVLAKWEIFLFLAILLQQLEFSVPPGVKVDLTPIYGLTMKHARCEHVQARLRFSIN

`N=C(N)NCCC[C@@H]1NC(=O)[C@H](Cc2c[nH]c3ccccc23)NC(=O)[C@@H](CC2CCCCC2)NC(=O)[C@@H]2CCCN2C(=O)[C@@H](NC(=O)CCc2ccccc2)CCCNC1=O` has an MRT(0-last) of 37.2 min (C57BL/6J mouse, plasma spinal cord; intravenous, 1 mg/kg single dose).
For `C=CC(=O)Nc1cc(Nc2nccc(-c3cn(C)c4ccccc34)n2)c(OCC(F)(F)F)nc1N(C)CCN(C)C`, “activity vs control” read 75.3% (Cytochrome P450 1A2 (CYP1A2, Homo sapiens, UniProt P05177); enzyme activity, inhibitor; human, liver microsomes; 3.33 µM).
With `CC(=O)N[C@H](C(=O)N[C@H](C(=O)N[C@@H](CCCNC(=N)N)C(=O)N1Cc2ccccc2C[C@H]1C(=O)N[C@@H](Cc1ccccc1)C(N)=O)C1CCCCC1)C(C)C` the cytokine level was 12.5 ± 15.3 pg/mL (human PBMC; Bio-Plex multiplex, item: TNF-a; 250 µg/mL, 24 h).
`[64Cu+2].c1cnc(CNCc2ccc(CN3CCCN4CCNCCCN(CC4)CC3)cc2)nc1` has a tissue uptake of 0.17 ± 0.02 %ID/g (CXCR4; NOD/SCID mouse, U87 and U87-stb-CXCR4 xenografts, muscle; iv, 90 min, no blocking dose, ex vivo).
With `CC(=O)OC(CCl)Cn1cncc1[N+](=O)[O-]` (centres unmarked) the mutagenic potency was 2.13 ± 0.14 revertants/µg (Salmonella enterica serovar Typhimurium; Ames test, Bernstein slope; TA97).
The tissue uptake of `[64Cu+2].c1ccc(CNCc2ccc(CN3CCCN4CCNCCCN(CC4)CC3)cc2)nc1` is reported as 1.77 ± 0.09 %ID/g (CXCR4; NOD/SCID mouse, U87 and U87-stb-CXCR4 xenografts, stomach; iv, 90 min, ex vivo, together with: AMD3465 25 mg/kg sc before tracer).
`Cn1c(=O)oc2ccc(-c3ccc(CC(C#N)NC(=O)C4CNCCCO4)c(F)c3)cc21` (centres unmarked): “mouth ulceration incidence” 11.1% (human; oral, 10 mg once daily, TEAE, multiple ascending dose).
`CCC(=O)N(C)c1ccc(Cl)c(Cl)c1` — result for “cells with multiple aberrations”: 0% (CHO-WBL; 0.13 mg/mL, 3 h, with S9 activation).

For quick reference, copied from above:
`[64Cu+2].c1cnc(CNCc2ccc(CN3CCCN4CCNCCCN(CC4)CC3)cc2)nc1` has a tissue uptake of 0.17 ± 0.02 %ID/g (CXCR4; NOD/SCID mouse, U87 and U87-stb-CXCR4 xenografts, muscle; iv, 90 min, no blocking dose, ex vivo).
